Experimental data gathered from unrelated publications.
Every numbered part comes from another study and shows a few of its results, in no order.

Set 1 — technique: protein binding microarray; form: double-stranded DNA, one strand shown; sample: in vitro; tested at: not given; reference: not given; direction: higher = stronger binding
Target: Histone acetyltransferase KAT6A, winged helix 2, GST fusion (KAT6A, Homo sapiens, UniProt Q92794, residues 85-181)
Notes: 8-mer, flanks averaged, mean of 2 arrays, mostly near background
Residues (chain): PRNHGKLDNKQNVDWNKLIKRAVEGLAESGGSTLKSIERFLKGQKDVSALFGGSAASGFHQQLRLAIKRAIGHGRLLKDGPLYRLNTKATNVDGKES
Oligonucleotide | E-score
GTGCCATA | -0.158
GGCGCCAC | 0.0614
AATCCAGA | 0.0661
AGGACGGG | -0.145
AGATACTA | -0.105

Set 2 — technique: protein-binding microarray; form: double-stranded DNA, one strand shown; sample: in vitro; tested at: 2200 nM top; notes: 60-bp whole probe; together with: salmon DNA 0.4 mg/ml; reference: random background probes; direction: higher = stronger binding
Target: Interferon regulatory factor 7, full length, phosphomimetic (IRF7, Homo sapiens, UniProt Q92985, residues 1-503, S471D/S472D/S475D/S476D/S477D/S483D/S484D/S487D)
Constant ends, left off below: GCCTAGCAC … GTGCTAGGTCTTGATTCGCTTGACGCTGCTG
Construct (chain): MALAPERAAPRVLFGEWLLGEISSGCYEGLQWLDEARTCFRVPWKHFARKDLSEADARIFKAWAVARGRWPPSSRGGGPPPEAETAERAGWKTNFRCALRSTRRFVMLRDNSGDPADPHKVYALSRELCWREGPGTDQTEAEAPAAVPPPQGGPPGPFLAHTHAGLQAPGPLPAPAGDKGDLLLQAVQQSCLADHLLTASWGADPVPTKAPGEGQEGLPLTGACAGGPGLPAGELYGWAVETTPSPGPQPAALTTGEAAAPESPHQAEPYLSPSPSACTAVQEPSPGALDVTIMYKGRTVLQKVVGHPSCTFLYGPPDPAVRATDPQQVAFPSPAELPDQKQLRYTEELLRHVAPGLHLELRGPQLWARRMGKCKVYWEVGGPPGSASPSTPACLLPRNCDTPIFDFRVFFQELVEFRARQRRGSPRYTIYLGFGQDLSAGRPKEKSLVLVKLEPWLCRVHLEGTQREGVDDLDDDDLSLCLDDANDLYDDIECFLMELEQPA
Oligonucleotide | fitted relative affinity
TTAGGACTGGGTCTCAGTTA | -0.452 z-score
TCAAACTTTTTTCTGATACT | 0.461 z-score
TCATGTCTTAGATTCCTACT | 1.28 z-score
TTGGTTTTCATTATTGCTTC | 2.78 z-score
GACGATTTCAGACTGGAGAT | 0.488 z-score

Set 3 — technique: RNA Bind-n-Seq; form: RNA; sample: in vitro; tested at: 200 nM; notes: whole 134-nt RNA, ends assumed; together with: 150 mM KCl; reference: input library; direction: higher = stronger binding
Target: Fragile X messenger ribonucleoprotein 1, C-terminal low-complexity region (Fmr1, Mus musculus, UniProt P35922)
Constant ends, left off below: GGGAGUUCUACAGUCCGACGAUC … UGGAAUUCUCGGGUGUCAAGG
Oligonucleotide | log2 enrichment
CACAGACAACACGCACCCACACAGACACAGAGGGAAGGGGUUGGGAUGGGGACAGGGUGCACAGCAGGGCGGGGUAGGUCCCCAGCCCCU | 1.32
CAAGUCCUGUGCUACACAUCGUAUGUACCGAAUCGGAAAAGGGGAAAAGGAAAAGGAAAGUAUUAUGUUACGCCGUUCGGAUCUGCACUU | -0.617
CUGUGCUACACAUCGUAUGUACCGAAUCGGGAAAAAAAGGGAAAAAAAGGGAAAAAAAGGGGAAAGUAUUAUGUUACGCCGUUCGGAUCU | -0.376
AAGUCCUGUGCUACACAUCGUAUGUACCGAAUCGGGUUUUUGGGUUUUUGGGUGGGAAAGUAUUAUGUUACGCCGUUCGGAUCUGCACUU | 0.819
AAGUCCUGUGCUACACAUCGUAUGUACCGAAUCGGUUUUUGGAAAAAAAGGUUUGGAAAGUAUUAUGUUACGCCGUUCGGAUCUGCACUU | -1.32

Other studies, line by line
Substance | target | test | system | setting | how to read | endpoint | result
PhoQ, residues 284 288 289 292 302 303 ASVMEA | PhoP, residues 12 14 15 18 19 TTLRV (Escherichia coli, UniProt P23836) | Sort-seq, measured: YFP reporter | E. coli | PhoQ-PhoP variant library, together with: 10 µM Mg2+ | reference: high Mg2+ state, higher = stronger signaling | fold induction | 18.6

Some of these lines once more (set 1):
Oligonucleotide | E-score
AATCCAGA | 0.0661
AGGACGGG | -0.145
AGATACTA | -0.105
